# Experimental data collected from several papers.
# Every numbered part comes from another study and shows a few of its results, in no order.
# UniProt Q15303, sequence (whole entry, looked up): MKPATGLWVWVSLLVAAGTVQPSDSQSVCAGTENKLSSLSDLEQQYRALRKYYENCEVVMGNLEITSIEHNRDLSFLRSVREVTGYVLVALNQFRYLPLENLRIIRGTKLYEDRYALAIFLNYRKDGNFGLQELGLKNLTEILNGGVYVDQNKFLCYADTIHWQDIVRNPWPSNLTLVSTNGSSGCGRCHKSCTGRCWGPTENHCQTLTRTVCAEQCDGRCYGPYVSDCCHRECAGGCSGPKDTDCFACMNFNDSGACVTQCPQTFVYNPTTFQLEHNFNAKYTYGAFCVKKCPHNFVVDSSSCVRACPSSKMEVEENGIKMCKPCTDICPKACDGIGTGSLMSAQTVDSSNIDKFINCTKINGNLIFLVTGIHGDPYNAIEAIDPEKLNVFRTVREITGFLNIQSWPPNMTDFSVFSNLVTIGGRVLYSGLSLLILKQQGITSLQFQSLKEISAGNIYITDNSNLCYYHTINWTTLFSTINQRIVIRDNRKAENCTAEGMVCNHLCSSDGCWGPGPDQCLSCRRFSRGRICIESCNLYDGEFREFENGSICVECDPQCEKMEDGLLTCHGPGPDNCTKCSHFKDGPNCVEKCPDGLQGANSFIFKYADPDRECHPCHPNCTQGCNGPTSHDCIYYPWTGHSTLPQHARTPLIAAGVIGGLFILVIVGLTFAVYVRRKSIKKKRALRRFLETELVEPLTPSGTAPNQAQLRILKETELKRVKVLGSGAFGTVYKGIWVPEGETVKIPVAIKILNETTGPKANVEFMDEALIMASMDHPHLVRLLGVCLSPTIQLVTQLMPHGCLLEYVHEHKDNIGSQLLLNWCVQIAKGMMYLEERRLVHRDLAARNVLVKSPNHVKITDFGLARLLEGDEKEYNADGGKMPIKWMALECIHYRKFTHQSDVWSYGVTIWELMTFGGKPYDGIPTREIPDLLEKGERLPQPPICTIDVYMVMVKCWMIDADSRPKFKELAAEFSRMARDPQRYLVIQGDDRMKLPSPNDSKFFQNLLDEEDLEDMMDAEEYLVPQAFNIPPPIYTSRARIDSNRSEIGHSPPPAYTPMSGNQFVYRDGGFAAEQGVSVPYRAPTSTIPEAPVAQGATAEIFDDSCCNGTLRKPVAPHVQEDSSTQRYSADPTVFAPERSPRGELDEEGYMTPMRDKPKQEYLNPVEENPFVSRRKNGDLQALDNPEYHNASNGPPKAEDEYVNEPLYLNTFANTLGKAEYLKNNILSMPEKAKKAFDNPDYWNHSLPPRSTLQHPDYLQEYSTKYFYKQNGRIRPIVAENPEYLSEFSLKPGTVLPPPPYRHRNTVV

# Set 1
# Target: Centromere-binding protein 1, full length, N-terminal tag (CBF1, Saccharomyces cerevisiae, UniProt P17106, residues 1-351)
# UniProt P17106, sequence (whole entry, looked up): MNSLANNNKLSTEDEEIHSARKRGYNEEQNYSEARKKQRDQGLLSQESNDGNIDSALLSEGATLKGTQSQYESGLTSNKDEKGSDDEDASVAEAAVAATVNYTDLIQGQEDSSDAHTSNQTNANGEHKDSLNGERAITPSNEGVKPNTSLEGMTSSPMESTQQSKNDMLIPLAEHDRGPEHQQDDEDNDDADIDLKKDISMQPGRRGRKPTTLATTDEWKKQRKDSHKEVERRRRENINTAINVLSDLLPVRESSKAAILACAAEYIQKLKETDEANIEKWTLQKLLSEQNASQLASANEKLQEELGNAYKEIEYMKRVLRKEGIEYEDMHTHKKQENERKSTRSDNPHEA
# Technique: protein-binding microarray
# Molecule type: double-stranded DNA, one strand shown
# Matrix: in vitro
# Concentration: 0.8 µM
# Setting: whole 60-bp probe, no competitor
# Reading: higher = stronger binding
# Shared flanks, not repeated: … GTCTTGATTCGCTTGACGCTGCTG
Sequence,fluorescence intensity [a.u.]
CTACAGGATAAATCCAGTGTGACCCGGACTGAATTC,532
TGTACGAAGCTATAGCAGGTGTTTATAGTAGTTAGG,548
GAATGTGAGGATTATTGTCATGTGAAGGCGTGATAG,1290
TGTACGAAGCTATCAAGCCTGATTATAGTAGTTAGG,511
CTAAAAGACAGGCAGCAGGTGAAGATAATACCATTC,558
CTAATCCCTATACCAGGTGAGTTGATATATATTTTC,531
CTAAACTACAGCTTCCATGTGAGCTTAAAACGATTC,622
GAATCTCTTCCGCCTCACGTAATATCAACAGGTTAG,547

# Set 2
# Target: RING finger protein unkempt homolog, zinc fingers 1-6, SBP tag (UNK, Homo sapiens, UniProt Q9C0B0, residues 30-357)
# UniProt Q9C0B0, sequence (30-357, looked up): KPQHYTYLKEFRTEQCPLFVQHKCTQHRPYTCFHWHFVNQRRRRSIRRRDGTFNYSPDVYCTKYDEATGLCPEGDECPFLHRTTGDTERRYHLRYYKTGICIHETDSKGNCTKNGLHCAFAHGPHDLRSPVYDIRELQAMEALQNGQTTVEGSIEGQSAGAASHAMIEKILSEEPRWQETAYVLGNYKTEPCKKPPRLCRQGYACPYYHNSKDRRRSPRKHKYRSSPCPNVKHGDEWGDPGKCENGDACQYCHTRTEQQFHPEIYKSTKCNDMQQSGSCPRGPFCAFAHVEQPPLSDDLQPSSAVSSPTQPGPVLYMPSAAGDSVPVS
# Technique: RNA Bind-n-Seq
# Molecule type: RNA
# Matrix: in vitro
# Concentration: 100 nM
# Setting: RNA with constant flanks, vertebrate orthologous sites, ends assumed
# Reference: input RNA pool
# Reading: higher = stronger binding
# Shared flanks, not repeated: GGGAGUUCUACAGUCCGACGAUC … CAACAGAGGAUUGAGCAUCA
Sequence,bound/input enrichment
AUAGAAUUAUAGAAGAAACAUUUUUCGUCUUCCUUUAUCUUUUAAUCCCUACCUAAUACCUAGUCUACUUUUAAAAAUUUCAAACUUCACUGCUCUUUGAAUUGAUAAUUCCAAUUUUCA,3.38 ratio
UGUAUGUACAUUAUUCACAUUCCUCUCUGUUGUGUUUGGGGGGGGGGGGAAAAAGACUUUUUAGCCUUUUUUAAGGUUACUGAUUUAAUUUCAUGUUAUUUGGUUGCAUGAAGUUGCCCU,0.946 ratio
ACAUCCUUUCUACUGUCCCUGGCCAGGGCCAAGAGCUGGAUGUCUCACCGACGGCCUGCAUUUAAAACAUUUUUUAAAUCAUUGUACAAGAAGAGGUGUGUCUGAACAUCUCCAAGUCAA,0.351 ratio
AGAAAAUUUUAACCAAGAAUCCGAAGGUAGAAAUACAGGACCAUGGUUAUCUUCUUCAUUUAGAAAUAGGUGUACACCUCUGUUUUCUAGAAGGAGGCGAGAGGGAAGAGAUGAAUCUUC,0.462 ratio
UAAUGUGUUUUUAUUUACUGAAGAUCGUUUUGUGCUAAGAAUUGUGUUAGAUUGAAAAAUAAGAGGAUUAGUUUCUCUUUGUUGUGUUGAUUUCAUUGUUGAAAAUAAAUAGAACUUUGU,0.597 ratio
ACAUUUAUAUUGUGGCAUAUAGUCAACAUGGAAGUAGACCAGCUCUGCUGAAUGGAAAUUUAGAUUUUUUUAAUUAUGUACUGGGGACAGGUUUUUGUCGCUUUACAUUGCUUCCUAGUU,3.64 ratio
CUCCUCUUAAUCCCAUCUCAUCUGUUUCAUAGUGCUGAAAUUCUAUCUUCAGCAUUAUUUUUAGUGAACUUGCUCCAACUCUAGAGAAACUUCCAGUAUGGAUACUGUGAGCUGUAUGGA,0.622 ratio
UUACAGUCAUUGAUGGACUCUAUUUUUUUAUUAUUACUUGGACUUUGGUCGUUUUUAUACUAGCAAAAUGUCUUGUUUUAAUUUGUGUUUUUUUUUGGGGGGGGAGGGAGUGAACUUGCU,1.68 ratio

# Set 3
# Target: RNA binding protein fox-1 homolog 2, RRM domain, GST-SBP tag (RBFOX2, Homo sapiens, UniProt O43251-10, residues 100-194)
# Technique: RNA Bind-n-Seq
# Molecule type: RNA
# Matrix: in vitro
# Concentration: 365 nM
# Setting: natural RNA segment, single round, ends assumed
# Reference: no-protein control
# Reading: higher = stronger binding
# Shared flanks, not repeated: GGGAGUUCUACAGUCCGACGAUC … UGGAAUUCUCGGGUGCCAA
# Construct (chain): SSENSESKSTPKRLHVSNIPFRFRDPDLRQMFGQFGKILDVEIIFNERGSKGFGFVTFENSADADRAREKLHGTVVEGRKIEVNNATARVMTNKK
Sequence,RBNS enrichment (R)
AGUAGCCGAGAGUGUCAUUCUCUCCACCCUUUCUGUGUGUACCAGAGCCACACCCAUGCCAUUACUGUAACAUUCCAACAUCUCCAUCUGACCUGACCUCCAUAUCUUCU,0.461
UUCUUUCUUGUAGUAGUUGAGACAGAGCUCUUAUUUACUGUAAUGCUAAAUGAAACAGUGGCUUAAAUAUUUUAAUGGGAAAAGAGAACACAGUGCGUUCCAUAUUGUGA,2.01
GUGACUGAGGCUAUGGAAAAAGGGUUCUGCAAAUAGCAUUCUGGGAUUGUGGGGAGAAAUCCCAGGUCAGGCCACAGCUGCAUGUUGCAUUAAAUGUGUUCUCAUGUCGC,1.52
CGGGCCUGCUGUGCUGCUUUUGUGCCAAGGUUAGCCAGUCCCCCCUGUUGUGUUCCAUGUGCUUUCACCUCUGCCUCAUCUUUCCUCCCGUCCCUGCCCCGCCACCUCCC,0.527
CUGAGUUUUGCAAGCGCUCAGGGUUUUCAUACUUAUUUCAUAUAACACCCAUUUCUAUUCAUUUCUGUAUAAAGAACAGUACAGAACAGUAUCGGGAUCUUUGUUGGUUU,5.61
UGAUUAUCUGCAGUUAAGUAGAUGACAGCUAUUCUACAUCAGACUUGAUUUUUGUCAGCUAAUUACAUAAUUGGUAAGCUAUAAUUGAAACCUUAUGGCUUAAAAUUCCU,0.411
UGUGCGGGGACUGGCCGAGGCCCCUGCACCCUGCGCAUCAGGACUGCUUCAUCGUCUUGGCUGAGAAAGGGAAAAGACACACAAGUCGCGUGGGUUGGAGAAGCCAGAGC,0.895
ACACAGAGAGUAACUGAAGCCUAUCUUAAGCAAAGAGAAACCACCCGUCCACUCUGGGGCUGCCCUACUGAAUGCCCCUUUCCAGGACCUUGGUAUUCCUUCUCAUUCAG,0.232

# Further values, each from its own experiment
SMILES,target,observed,mode,concentration,reference,quantity,value
O=C(Nc1ccc(Cl)cc1)c1ccccc1NCc1ccncc1,"Receptor tyrosine-protein kinase erbB-4 (ERBB4, Homo sapiens, UniProt Q15303)",enzyme activity,inhibitor,0.5 µM,control,remaining activity,71.3%

# Excerpt of the above (set 3):
Sequence,RBNS enrichment (R)
AGUAGCCGAGAGUGUCAUUCUCUCCACCCUUUCUGUGUGUACCAGAGCCACACCCAUGCCAUUACUGUAACAUUCCAACAUCUCCAUCUGACCUGACCUCCAUAUCUUCU,0.461
UUCUUUCUUGUAGUAGUUGAGACAGAGCUCUUAUUUACUGUAAUGCUAAAUGAAACAGUGGCUUAAAUAUUUUAAUGGGAAAAGAGAACACAGUGCGUUCCAUAUUGUGA,2.01
